{"data": "Measurements collected from several papers", "cell line": "HCT-116", "note": "Compare with care: the assays were run in different laboratories. Numbers after ± are the reported error."}
{"Compound": "CSc1nc(Nc2cccc(/C(C)=N/NC(=O)c3cccc(Cl)c3)c2)c(C#N)c(-c2ccccc2)n1", "effect on": "cell growth or viability", "technique": "MTT", "time": "48 h", "IC50 [µM]": 9.25}
{"Compound": "N#Cc1c(F)c(F)c2nc(SCc3ccc4ccccc4c3)nc(N)c2c1F", "effect on": "cell growth or viability", "technique": "MTT", "time": "96 h", "IC50 [µM]": 3.84}
{"Compound": "O=C(Cn1c(=O)c(Cc2ccccc2)nc2ccccc21)NCCOCCO", "effect on": "cell growth or viability", "technique": "MTT", "time": "72 h", "IC50 [µM]": 0.405}
{"Compound": "CSc1nc(Nc2ccc(C(=O)N/N=C/c3ccc(Cl)cc3Cl)cc2)c(C#N)c(-c2ccccc2)n1", "effect on": "cell growth or viability", "technique": "MTT", "time": "48 h", "IC50 [µM]": 20.6}
{"Compound": "O=C(NCCCNc1n[n+]([O-])c2ccccc2[n+]1[O-])C(F)(F)F", "effect on": "cytotoxicity", "technique": "MTT", "time": "24 h", "notes": "hypoxia", "IC50 [µM]": 38.6}
{"Compound": "CC(=O)OC[C@H]1O[C@@H](Oc2ccc(C#[C][Pt+])cc2)[C@H](OC(C)=O)[C@@H](OC(C)=O)[C@@H]1OC(C)=O.O=S(=O)([O-])C(F)(F)F.c1ccc(-c2cccc(-c3ccccn3)n2)nc1", "effect on": "cell growth or viability", "time": "72 h", "IC50 [µM]": 16.2}
{"Compound": "COC(=O)[C@H](CC(C)C)NC(=O)CNC(=O)COc1ccc2c(C)cc(=O)oc2c1", "effect on": "cell growth or viability", "technique": "MTT", "IC50 [µM]": 61}
{"Compound": "CSc1nc(Nc2cccc(/C(C)=N/NC(=O)c3ccc(N)cc3)c2)c(C#N)c(-c2ccccc2)n1", "effect on": "cell growth or viability", "technique": "MTT", "time": "48 h", "IC50 [µM]": 16.4}
{"Compound": "N=C(N)NCCC[C@H](N)C(=O)N[C@@H](Cc1ccc(O)cc1)C(=O)N[C@@H](Cc1c[nH]c2ccccc12)C(=O)N[C@@H](Cc1ccc(O)cc1)C(=O)NCC(N)=O", "IC50 [µM]": "> 100"}
{"Compound": "Cc1ccc(-c2nc(SCCOC(=O)[C@]3(C)CCC[C@]4(C)c5ccc(C(C)C)cc5CCC34)nc(O)c2C#N)cc1 (stereo partly drawn)", "effect on": "cell growth or viability", "technique": "MTT", "time": "48 h", "IC50 [µM]": "9.53 to 19.4"}
{"Compound": "COc1cccc2cc(C(=O)NNC(N)=S)c(=O)oc12", "effect on": "cell growth or viability", "technique": "SRB", "time": "72 h", "IC50 [µM]": 36.2}
{"Compound": "C/C(=N\\N=c1/[nH]c(-c2ccccc2)cs1)c1c(O)c2ccccc2oc1=O", "effect on": "cell growth or viability", "technique": "MTT", "time": "48 h", "IC50 [µM]": 31.8}
{"Compound": "Nc1ccccc1NC(=O)c1ccc(Nc2nccc(-c3cn(C4CCCC4)nn3)n2)cc1", "effect on": "cell growth or viability", "technique": "SRB", "time": "72 h", "IC50 [µM]": 2.2}
{"Compound": "Cn1[c]([Ir-3]234([NH3+])[n]5c6ccc5C(c5c(F)c(F)c(F)c(F)c5F)=C5C=CC(=[N+]52)C(c2c(F)c(F)c(F)c(F)c2F)=c2ccc([n]23)=C(c2c(F)c(F)c(F)c(F)c2F)C2=[N+]4C(=C6c3c(F)c(F)c(F)c(F)c3F)C=C2)[n+](C)c2ccccc21.F[P-](F)(F)(F)(F)F", "effect on": "cell growth or viability", "technique": "MTT", "time": "72 h", "IC50 [µM]": 0.42}
{"Compound": "Cc1cc(C)c(N=[C](NCc2ccc(N)cc2)[AuH][Cl])c(C)c1", "effect on": "cell growth or viability", "IC50 [µM]": "> 100"}
{"Compound": "CC12CCCC(NS(=O)(=O)C3CCN(Cc4ccccc4)C3)(C1)C1CC(C)(C)C1CC2 (stereo not drawn)", "effect on": "cell growth or viability", "technique": "CCK-8", "time": "72 h", "IC50 [µM]": 40.6}
{"Compound": "Cc1c(C)c(C)[c-](C)c1C.O=[N+]([O-])c1ccnc(-c2[c-]cccc2)c1.[Cl-].[Ir+3]", "technique": "SRB", "time": "24 h", "notes": "72 h recovery", "IC50 [µM]": "27.5 ± 0.9"}
{"Compound": "Fc1ccccc1/C=C/c1nc2ccccc2nc1N1CCOCC1", "effect on": "cell growth or viability", "technique": "MTT", "time": "72 h", "IC50 [µM]": 11}
{"Compound": "COc1ccccc1/C=C1\\SC(=O)N(CC(=O)Nc2ccc(C(=O)Nc3ccc([N+](=O)[O-])cc3)cc2)C1=O", "effect on": "cell growth or viability", "technique": "MTT", "IC50 [µM]": 9.17}
{"Compound": "CC(C)c1cccc(C(C)C)c1[N+]#[C][Pd-2]([Cl])([Cl])[C]#[N+]c1c(C(C)C)cccc1C(C)C", "effect on": "cell growth or viability", "IC50 [µM]": "> 100"}
{"Compound": "CO[C@@H]1[C@@H](O[C@@H]2O[C@H](C)[C@@H](O[C@H]3C[C@@](C)(O)[C@@H](OC(=O)CC(C)C)[C@H](C)O3)[C@H](N(C)C)[C@H]2O)[C@@H](CC=O)C[C@@H](C)[C@@H](O[C@H]2CC[C@H](N(C)C)[C@@H](C)O2)/C=C/C=C/C[C@@H](C)OC(=O)C[C@H]1O", "effect on": "cell growth or viability", "technique": "CCK-8", "time": "72 h", "IC50 [µM]": 12.7}
{"Compound": "Cc1ccc(CN2C(=O)/C(=N\\c3ccc(Cl)cc3Br)c3ccccc32)cc1", "effect on": "cell growth or viability", "technique": "MTT", "time": "48 h", "IC50 [µM]": 0.64}
{"Compound": "CCN1CCC2(CC1)C/C(=N\\NC(=O)Nc1ccc(Cl)cc1)c1ccccc1O2", "time": "48 h", "IC50 [µM]": "21.7 ± 0.88"}
{"Compound": "O=C(CCCCCCN1CCN(c2ccc(Nc3ncc(F)c(-c4cn(C5CCCC5)nn4)n3)cc2)CC1)NO", "effect on": "cell growth or viability", "technique": "SRB", "time": "72 h", "IC50 [µM]": 2.07}
{"Compound": "COC(=O)CNC(=O)CCn1nc(Cc2ccccc2)c2ccccc2c1=O", "effect on": "cell growth or viability", "technique": "MTT", "time": "48 h", "IC50 [µM]": 40.8}
{"Compound": "CC(C)(C)N=[C](NCc1ccc(N)cc1)[AuH][Cl]", "effect on": "cell growth or viability", "IC50 [µM]": "> 100"}
{"Compound": "CO[C@@H]1[C@@H](O[C@@H]2O[C@H](C)[C@@H](O[C@H]3C[C@@](C)(O)[C@@H](OC(=O)/C=C/c4ccc(C(F)(F)F)cc4)[C@H](C)O3)[C@H](N(C)C)[C@H]2O)[C@@H](CC=O)C[C@@H](C)[C@@H](O[C@H]2CC[C@H](N(C)C)[C@@H](C)O2)/C=C/C=C/C[C@@H](C)OC(=O)C[C@H]1O", "effect on": "cell growth or viability", "technique": "CCK-8", "time": "72 h", "IC50 [µM]": 2.36}
{"Compound": "O=C(CCc1nc2cc(Cl)ccc2[nH]c1=O)Nc1ccc(O)cc1", "effect on": "cell growth or viability", "technique": "MTT", "IC50 [µM]": 4.72}
{"Compound": "CCCCc1ccc(C(=O)O[C@H]2[C@H](C)O[C@@H](O[C@H]3[C@H](N(C)C)[C@@H](O)[C@H](O[C@H]4[C@@H](CC=O)C[C@@H](C)[C@@H](O[C@H]5CC[C@H](N(C)C)[C@@H](C)O5)/C=C/C=C/C[C@@H](C)OC(=O)C[C@@H](O)[C@@H]4OC)O[C@@H]3C)C[C@@]2(C)O)cc1", "effect on": "cell growth or viability", "technique": "CCK-8", "time": "72 h", "IC50 [µM]": 3.51}
{"Compound": "COc1ccc([C@@H]2COc3cc(O)ccc3C2)c(OC)c1", "effect on": "cell growth or viability", "technique": "MTT", "time": "72 h", "IC50 [µM]": 31.9}
{"Compound": "O=C(NCCCCCCCNc1n[n+]([O-])c2ccccc2[n+]1[O-])C(F)(F)F", "effect on": "cytotoxicity", "technique": "MTT", "time": "24 h", "notes": "hypoxia", "IC50 [µM]": 47.5}
{"Compound": "CC(C)c1cccc(C(C)C)c1[N+]#[C][Pt-]([Cl])([Cl])=[C](Nc1ccc(CN[C](NC(C)(C)C)=[Au][Cl])cc1)Nc1c(C(C)C)cccc1C(C)C", "effect on": "cell growth or viability", "IC50 [µM]": 12}
{"Compound": "C=CC(=O)N1CCCC(n2c(=O)c3ncccc3n(Cc3ccc(Oc4ccccc4)cc3)c2=O)C1 (stereo not drawn)", "effect on": "cell growth or viability", "technique": "MTT", "IC50 [µM]": "> 10"}
{"Compound": "CC(C)c1cccc(C(C)C)c1N=[C](NCc1cccc(N)c1)[AuH][Cl]", "effect on": "cell growth or viability", "IC50 [µM]": 4.4}
{"Compound": "N#Cc1c(F)c(F)c2nc(SCc3ccccc3)nc(N)c2c1F", "effect on": "cell growth or viability", "technique": "MTT", "time": "96 h", "IC50 [µM]": 4.89}
{"Compound": "O=C(NCCCCCCNc1n[n+]([O-])c2ccccc2[n+]1[O-])C(F)(F)F", "effect on": "cytotoxicity", "technique": "MTT", "time": "24 h", "notes": "hypoxia", "IC50 [µM]": 63.9}
{"Compound": "Cc1ccc(C(C)C)cc1.[Cl][Ru]([Cl])[P](CP(c1ccccc1)c1ccccc1)(c1ccccc1)c1ccccc1", "effect on": "cell growth or viability", "technique": "trypan blue", "time": "48 h", "IC50 [µM]": 21.9}
{"Compound": "C/C(=N\\N=C(SCc1ccccc1)SCc1ccccc1)c1ccc(S(=O)(=O)N2CCC(C)CC2)cc1", "effect on": "cell growth or viability", "technique": "MTT", "IC50 [µM]": 31.8}
{"Compound": "CN1CCC2(CC1)C/C(=N\\NC(=O)Nc1ccccc1)c1ccccc1O2", "time": "48 h", "IC50 [µM]": 5.6}
